Assay results gathered from unrelated publications.
± gives the spread as reported.
UniProt P11362, sequence (whole entry, looked up): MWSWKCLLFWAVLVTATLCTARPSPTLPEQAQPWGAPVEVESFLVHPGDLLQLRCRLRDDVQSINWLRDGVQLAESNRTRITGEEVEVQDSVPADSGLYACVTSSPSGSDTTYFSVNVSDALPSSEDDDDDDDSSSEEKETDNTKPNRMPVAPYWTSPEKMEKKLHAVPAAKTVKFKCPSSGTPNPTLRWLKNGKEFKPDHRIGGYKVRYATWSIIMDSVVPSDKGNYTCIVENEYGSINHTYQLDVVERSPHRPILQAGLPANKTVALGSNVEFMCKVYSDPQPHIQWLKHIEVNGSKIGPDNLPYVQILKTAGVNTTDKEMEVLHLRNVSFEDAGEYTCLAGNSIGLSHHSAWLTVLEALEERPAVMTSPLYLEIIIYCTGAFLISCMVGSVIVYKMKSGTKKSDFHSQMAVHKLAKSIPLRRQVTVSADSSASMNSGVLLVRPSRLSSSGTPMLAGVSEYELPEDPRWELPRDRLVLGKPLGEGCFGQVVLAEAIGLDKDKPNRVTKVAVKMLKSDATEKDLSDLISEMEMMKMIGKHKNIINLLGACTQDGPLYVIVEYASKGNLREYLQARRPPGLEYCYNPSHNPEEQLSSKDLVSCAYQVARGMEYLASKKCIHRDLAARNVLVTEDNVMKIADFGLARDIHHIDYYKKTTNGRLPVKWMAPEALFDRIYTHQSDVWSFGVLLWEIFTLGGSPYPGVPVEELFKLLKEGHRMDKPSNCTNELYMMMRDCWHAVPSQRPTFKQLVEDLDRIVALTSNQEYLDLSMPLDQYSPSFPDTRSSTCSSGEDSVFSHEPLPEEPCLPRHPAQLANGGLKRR
UniProt P49720, sequence (whole entry, looked up): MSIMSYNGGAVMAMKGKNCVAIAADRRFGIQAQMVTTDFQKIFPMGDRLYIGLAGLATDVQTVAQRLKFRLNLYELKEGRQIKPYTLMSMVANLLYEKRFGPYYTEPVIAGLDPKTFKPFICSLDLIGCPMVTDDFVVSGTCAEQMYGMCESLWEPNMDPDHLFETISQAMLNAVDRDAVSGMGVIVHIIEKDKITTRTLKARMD
UniProt O35433, sequence (whole entry, looked up): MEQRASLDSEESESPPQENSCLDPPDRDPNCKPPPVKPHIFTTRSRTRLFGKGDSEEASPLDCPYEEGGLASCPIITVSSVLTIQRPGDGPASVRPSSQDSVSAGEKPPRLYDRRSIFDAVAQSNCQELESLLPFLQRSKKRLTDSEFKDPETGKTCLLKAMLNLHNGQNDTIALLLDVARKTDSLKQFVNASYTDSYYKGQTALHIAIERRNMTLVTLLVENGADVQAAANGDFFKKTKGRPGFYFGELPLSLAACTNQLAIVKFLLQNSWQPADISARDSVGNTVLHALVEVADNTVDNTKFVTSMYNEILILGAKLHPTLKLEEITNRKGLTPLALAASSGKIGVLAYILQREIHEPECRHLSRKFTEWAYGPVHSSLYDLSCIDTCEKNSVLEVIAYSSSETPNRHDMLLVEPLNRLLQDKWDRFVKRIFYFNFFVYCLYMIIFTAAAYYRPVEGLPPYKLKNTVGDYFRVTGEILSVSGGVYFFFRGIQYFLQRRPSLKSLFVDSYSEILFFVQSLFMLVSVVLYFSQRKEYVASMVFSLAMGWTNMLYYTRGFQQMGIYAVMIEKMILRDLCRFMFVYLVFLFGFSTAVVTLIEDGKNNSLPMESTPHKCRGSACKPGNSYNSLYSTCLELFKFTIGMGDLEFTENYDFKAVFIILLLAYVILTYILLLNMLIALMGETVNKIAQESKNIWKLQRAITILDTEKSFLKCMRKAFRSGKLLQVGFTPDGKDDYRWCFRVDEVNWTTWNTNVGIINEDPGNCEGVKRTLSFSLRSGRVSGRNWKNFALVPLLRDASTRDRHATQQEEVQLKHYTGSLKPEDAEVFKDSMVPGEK
UniProt P28845, sequence (whole entry, looked up): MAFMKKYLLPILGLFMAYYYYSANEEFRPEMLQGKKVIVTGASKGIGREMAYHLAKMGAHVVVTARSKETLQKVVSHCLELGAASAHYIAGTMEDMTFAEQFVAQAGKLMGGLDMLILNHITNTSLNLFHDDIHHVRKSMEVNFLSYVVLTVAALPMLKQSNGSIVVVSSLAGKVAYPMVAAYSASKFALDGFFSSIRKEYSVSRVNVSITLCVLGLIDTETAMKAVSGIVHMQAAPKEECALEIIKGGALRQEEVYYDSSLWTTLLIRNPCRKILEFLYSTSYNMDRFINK
UniProt P40306, sequence (whole entry, looked up): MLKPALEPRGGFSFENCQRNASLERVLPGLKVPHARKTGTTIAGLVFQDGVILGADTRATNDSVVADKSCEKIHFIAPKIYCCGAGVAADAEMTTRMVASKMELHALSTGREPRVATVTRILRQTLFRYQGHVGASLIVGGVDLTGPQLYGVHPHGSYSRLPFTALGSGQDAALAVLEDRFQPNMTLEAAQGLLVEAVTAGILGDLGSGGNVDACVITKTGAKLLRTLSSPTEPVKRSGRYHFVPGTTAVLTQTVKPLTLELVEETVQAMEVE
UniProt Q96FL8, sequence (whole entry, looked up): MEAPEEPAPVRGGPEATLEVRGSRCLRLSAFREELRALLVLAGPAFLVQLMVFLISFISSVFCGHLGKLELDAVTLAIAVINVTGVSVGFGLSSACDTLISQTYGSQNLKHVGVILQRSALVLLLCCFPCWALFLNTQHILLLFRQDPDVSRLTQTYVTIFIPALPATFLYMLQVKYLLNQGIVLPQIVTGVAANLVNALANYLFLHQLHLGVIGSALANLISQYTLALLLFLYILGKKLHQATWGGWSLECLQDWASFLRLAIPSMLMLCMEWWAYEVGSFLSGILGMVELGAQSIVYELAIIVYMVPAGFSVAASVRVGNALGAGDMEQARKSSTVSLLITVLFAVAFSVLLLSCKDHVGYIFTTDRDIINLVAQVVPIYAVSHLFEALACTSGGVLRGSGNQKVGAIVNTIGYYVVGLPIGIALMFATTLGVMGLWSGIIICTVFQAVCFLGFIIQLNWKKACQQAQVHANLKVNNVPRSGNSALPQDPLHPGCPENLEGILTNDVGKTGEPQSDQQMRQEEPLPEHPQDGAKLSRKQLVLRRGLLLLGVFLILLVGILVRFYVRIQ
UniProt P08482, sequence (whole entry, looked up): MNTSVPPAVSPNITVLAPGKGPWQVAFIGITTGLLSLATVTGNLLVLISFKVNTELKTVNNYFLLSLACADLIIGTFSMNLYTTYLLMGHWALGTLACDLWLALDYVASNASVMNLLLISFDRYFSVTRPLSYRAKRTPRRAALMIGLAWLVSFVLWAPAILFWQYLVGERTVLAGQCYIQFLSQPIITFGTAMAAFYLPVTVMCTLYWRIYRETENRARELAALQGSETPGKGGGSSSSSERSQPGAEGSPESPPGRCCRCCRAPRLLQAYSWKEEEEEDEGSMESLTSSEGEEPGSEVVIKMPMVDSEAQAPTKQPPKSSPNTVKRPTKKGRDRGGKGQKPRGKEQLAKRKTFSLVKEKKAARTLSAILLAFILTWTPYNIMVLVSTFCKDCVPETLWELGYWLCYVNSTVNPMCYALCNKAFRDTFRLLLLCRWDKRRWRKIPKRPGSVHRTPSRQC
UniProt Q96JM7, sequence (whole entry, looked up): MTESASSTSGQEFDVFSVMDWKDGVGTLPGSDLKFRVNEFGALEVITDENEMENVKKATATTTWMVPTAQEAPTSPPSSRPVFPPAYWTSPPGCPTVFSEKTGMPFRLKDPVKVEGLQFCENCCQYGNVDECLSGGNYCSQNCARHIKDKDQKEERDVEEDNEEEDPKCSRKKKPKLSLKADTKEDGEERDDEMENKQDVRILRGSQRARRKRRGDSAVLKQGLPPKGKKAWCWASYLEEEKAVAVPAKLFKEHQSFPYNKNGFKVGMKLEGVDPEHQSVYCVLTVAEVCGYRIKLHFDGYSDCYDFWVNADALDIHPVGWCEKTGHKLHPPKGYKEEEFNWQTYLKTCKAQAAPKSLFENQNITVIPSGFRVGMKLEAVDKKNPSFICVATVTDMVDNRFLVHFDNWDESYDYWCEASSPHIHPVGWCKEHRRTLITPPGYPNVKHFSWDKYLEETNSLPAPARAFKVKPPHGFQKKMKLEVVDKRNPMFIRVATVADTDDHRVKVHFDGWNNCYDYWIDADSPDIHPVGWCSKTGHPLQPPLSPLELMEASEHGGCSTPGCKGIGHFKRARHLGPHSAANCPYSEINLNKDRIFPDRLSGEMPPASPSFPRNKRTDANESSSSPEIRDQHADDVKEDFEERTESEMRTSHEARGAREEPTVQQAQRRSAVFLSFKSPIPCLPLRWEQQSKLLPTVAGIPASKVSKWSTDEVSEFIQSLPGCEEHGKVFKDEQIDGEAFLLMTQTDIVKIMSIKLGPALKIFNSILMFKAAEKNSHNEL
UniProt P07237, sequence (whole entry, looked up): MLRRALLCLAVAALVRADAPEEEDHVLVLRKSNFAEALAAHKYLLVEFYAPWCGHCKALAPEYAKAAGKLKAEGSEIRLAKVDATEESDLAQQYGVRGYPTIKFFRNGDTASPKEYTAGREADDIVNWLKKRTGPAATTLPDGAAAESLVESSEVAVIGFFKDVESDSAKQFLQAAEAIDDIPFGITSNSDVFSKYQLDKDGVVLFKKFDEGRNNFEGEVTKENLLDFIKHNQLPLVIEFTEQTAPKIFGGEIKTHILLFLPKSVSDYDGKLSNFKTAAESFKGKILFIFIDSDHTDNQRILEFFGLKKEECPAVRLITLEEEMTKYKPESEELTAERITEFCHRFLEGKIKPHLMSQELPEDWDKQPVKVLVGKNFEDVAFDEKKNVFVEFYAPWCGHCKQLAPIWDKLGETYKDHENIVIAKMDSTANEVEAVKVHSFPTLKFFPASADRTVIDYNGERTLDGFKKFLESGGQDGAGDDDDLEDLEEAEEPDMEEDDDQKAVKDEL

SMILES | target | test | system | setting | IC50
O=C(Nc1ccc(O)c(C(=O)Nc2ccnc(C(F)(F)F)c2)c1)c1cccnc1 | DDR1 (Homo sapiens, UniProt Q08345) | enzyme activity, inhibitor, mobility shift |  |  | > 30 µM
CN(C)C(=O)C1CN1S(=O)(=O)c1ccc(C(C)(C)C)cc1 (centres unmarked) | P4HB (Homo sapiens, UniProt P07237) | enzyme activity, inhibitor, absorbance |  | pH 7.6 | 26.8 µM
CC(C)(C)NCCCNC(=O)c1ccnc(Br)c1 | Lethal(3)malignant brain tumor-like protein 3 (Homo sapiens, UniProt Q96JM7) | methyl-lysine reader binding, inhibitor, AlphaScreen |  |  | > 100 µM
Cc1ccc(CNC(=O)[C@H](CCc2ccccc2)NC(=O)[C@H](CC(=O)NCC(C)(C)C)NC(=O)CCc2cccc(F)c2)cc1 | Proteasome subunit beta type-10 / Proteasome subunit beta type-3 (Homo sapiens, UniProt P40306+P49720) | inhibitor |  |  | > 100 µM
Cc1cc(Cl)ccc1[C@H]1N[C@H](C(=O)O)Cc2c1[nH]c1ccccc21 | MEP cytidylyltransferase IspD (Plasmodium falciparum, UniProt Q8I273) | enzyme activity, inhibitor, fluorimetric pyrophosphate |  | 60 nM enzyme | 0.26 ± 0.05 µM
CCN(c1ccccc1)c1nc(Cl)nc2[nH]ncc12 | TDO2 (Homo sapiens, UniProt P48775) | inhibitor |  | with: L-tryptophan 400 µM | 237 µM
c1ccc(/N=c2\oc3ccccc3cc2-c2ccccc2)cc1 | PTGS2 (Homo sapiens, UniProt P35354) | enzyme activity, inhibitor |  |  | 0.0097 µM
N#CC(c1ccccc1)(c1ccccc1)c1ccccc1Cl | Gap junction alpha-8 protein (Gja8, Mus musculus, UniProt P28236) | gap junction current, inhibitor, dual whole-cell voltage clamp | transfected mouse N2a cell pairs |  | 4 µM
CN1Cc2c(Cl)cc(Cl)cc2C(c2cccc(S(=O)(=O)NCCOCCNC(=O)C(O)C(O)C(=O)NCCOCCNS(=O)(=O)c3cccc(C4CN(C)Cc5c(Cl)cc(Cl)cc54)c3)c2)C1 (centres unmarked) | Sodium/hydrogen exchanger 3 (Rattus norvegicus, UniProt P26433) | intracellular pH recovery, inhibitor, pH-sensitive dye | opossum kidney cells, transfected |  | 1.58 µM
COc1cccc(-c2nnc3ccc(N4CCN(C(=O)c5ccc(Br)o5)CC4)nn23)c1 | Chrm1 (Rattus norvegicus, UniProt P08482) | calcium mobilization, antagonist | CHO expressing rat M1 |  | 3.59 µM
CC(=O)Nc1nnc(S(=O)(=O)CC(=O)C23CC4CC(CC(C4)C2)C3)s1 | HSD11B1 (Homo sapiens, UniProt P28845) | enzyme activity in cells, inhibitor |  |  | 0.309 µM
COC(=O)N1CCC(CN2CCC(CNC(=O)c3cccc4[nH]c(C(C)C)nc34)CC2)CC1 | SLC47A1 (Homo sapiens, UniProt Q96FL8) | transporter uptake, inhibitor |  |  | 0.988 µM
CCCC[C@H](NC(C)=O)C(=O)N[C@@H](CO)C(=O)N[C@H](C(=O)N1CCC[C@H]1C(=O)N[C@]1(C)CCCCCCC=CCCC[C@@](C)(C(=O)N[C@@H](Cc2ccccc2)C(=O)N[C@@H](CCCCN)C(=O)N[C@@H](CCCNC(=N)N)C(=O)N[C@@H](CC(C)C)C(=O)N[C@@H](CCC(N)=O)C(N)=O)NC(=O)[C@H](CCCNC(=N)N)NC(=O)[C@H](CCCC)NC(=O)[C@H](CC(C)C)NC(=O)[C@H](CCCNC(=N)N)NC(=O)[C@H](CCCNC(=N)N)NC(=O)[C@H](CCCNC(=N)N)NC1=O)[C@@H](C)O | NEDD8-activating enzyme E1 catalytic subunit, part with NAE1 (UBA3, Homo sapiens, UniProt Q8TBC4) | NEDD8 thioester transfer to UBE2M, inhibitor |  |  | 14.5 ± 5.4 µM
N#Cc1cnc(Nc2nc3ccccc3o2)nc1-c1ccc(OC(F)(F)F)cc1 | Grm5 (Rattus norvegicus, UniProt P31424) | calcium signal, antagonist |  |  | > 30 µM
Cc1cccc2c1N(C(=O)CSc1ccc(C(F)(F)F)cn1)CCC2 | TRPV3 (Homo sapiens, UniProt Q8NET8) | calcium flux, inhibitor | HEK293 overexpressing target | 30 min preincubation, with: drofenine 200 µM | 2 µM
COc1cc2nccc(Oc3ccc(NC(=S)NC4CC4)c(Cl)c3)c2cc1-c1ncco1 | FGFR1 (Homo sapiens, UniProt P11362) |  |  |  | 2.64 µM
CCC1(CC)C[C@@H](NC(=O)Nc2cccc3c(C)nccc23)c2cc(F)ccc2O1 | Trpv1 (Rattus norvegicus, UniProt O35433) | capsaicin-induced 45Ca2+ uptake, antagonist | CHO expressing rat TRPV1 | pH 7.4, with: capsaicin 500 nM | 0.0037 ± 0.0014 µM

A few entries again:
SMILES | target | test | system | setting | IC50
CCN(c1ccccc1)c1nc(Cl)nc2[nH]ncc12 | TDO2 (Homo sapiens, UniProt P48775) | inhibitor |  | with: L-tryptophan 400 µM | 237 µM
